{"data": "Measured values collected from several papers", "note": "Each numbered part is a random draw from the data of one study; scales do not carry over between parts."}
{"data": "Series 1", "target": "Replicase polyprotein 1ab, nsp13 helicase (rep, Severe acute respiratory syndrome coronavirus 2, UniProt P0DTD1)", "observed": "helicase activity", "mode": "inhibitor", "concentration": "20 µM"}
{"Structure (SMILES)": "COc1ccc2c(c1)c(CC(=O)O)c(C)n2C(=O)c1ccc(Cl)cc1", "inhibition": "0.45%"}
{"Structure (SMILES)": "CCCC[C@@H](C=O)NC(=O)[C@H](CC(C)C)NC(=O)OCc1ccccc1", "inhibition": "3.97%"}
{"Structure (SMILES)": "CCN(CCO)CCCC(C)Nc1ccnc2cc(Cl)ccc12 (stereo not drawn)", "inhibition": "8.87%"}
{"Structure (SMILES)": "CC(=O)[C@@]1(O)CC[C@H]2[C@@H]3C[C@H](C)C4=CC(=O)C=C[C@]4(C)[C@@]3(F)[C@@H](O)C[C@@]21C", "inhibition": "-1.3%"}
{"Structure (SMILES)": "Nc1ccncc1", "inhibition": "-0.47%"}
{"Structure (SMILES)": "CC(C)COCC(CN(Cc1ccccc1)c1ccccc1)N1CCCC1 (stereo not drawn)", "inhibition": "4.45%"}
{"Structure (SMILES)": "C[C@@H]1C[C@H]2[C@@H]3CCC4=CC(=O)C=C[C@]4(C)[C@@]3(F)[C@@H](O)C[C@]2(C)[C@@]1(O)C(=O)CO", "inhibition": "3.49%"}
{"Structure (SMILES)": "Cc1cc(C(C#N)c2ccc(Cl)cc2)c(Cl)cc1NC(=O)c1cc(I)cc(I)c1O (stereo not drawn)", "inhibition": "8.27%"}
{"Structure (SMILES)": "Cc1cn([C@H]2C[C@H](N=[N+]=[N-])[C@@H](CO)O2)c(=O)[nH]c1=O", "inhibition": "1.15%"}
{"Structure (SMILES)": "CCOC(=O)C1=C[C@@H](OC(CC)CC)[C@H](NC(C)=O)[C@@H](N)C1", "inhibition": "5.65%"}
{"Structure (SMILES)": "CCCCCCNC(=O)n1cc(F)c(=O)[nH]c1=O", "inhibition": "4.14%"}
{"Structure (SMILES)": "CC(C)[C@]12O[C@H]1[C@@H]1O[C@]13[C@]1(O[C@H]1C[C@H]1C4=C(CC[C@@]13C)C(=O)OC4)[C@@H]2O", "inhibition": "2.13%"}
{"Structure (SMILES)": "O=C(NN1C(=O)[C@@H]2[C@@H]3C=C[C@@H]([C@H]4C[C@@H]34)[C@@H]2C1=O)c1ccc(C(F)(F)F)cc1", "inhibition": "1.45%"}
{"Structure (SMILES)": "CC(C)(C)NC(=O)N[C@H](C(=O)N1C[C@H]2[C@@H]([C@H]1C(=O)NC(CC1CCC1)C(=O)C(N)=O)C2(C)C)C(C)(C)C (stereo partly drawn)", "inhibition": "-5.73%"}
{"Structure (SMILES)": "Cc1nnc(C(=O)NC(C)(C)c2nc(C(=O)NCc3ccc(F)cc3)c(O)c(=O)n2C)o1", "inhibition": "3.75%"}
{"Structure (SMILES)": "CC(C)NCC(O)COc1cccc2[nH]ccc12 (stereo not drawn)", "inhibition": "0.26%"}
{"Structure (SMILES)": "COc1cc(CNC(=O)CCCC/C=C/C(C)C)ccc1O", "inhibition": "0.6%"}
{"Structure (SMILES)": "Nc1ncnc2c1ncn2[C@@H]1O[C@H](COP(=O)(O)OP(=O)(O)OP(=O)(O)O)[C@@H](O)[C@H]1O", "inhibition": "9.31%"}
{"Structure (SMILES)": "CCN(CC)C(C)C(=O)c1ccccc1 (stereo not drawn)", "inhibition": "0.92%"}
{"data": "Series 2", "target": "ATP-dependent RNA helicase DDX3X, helicase core (DDX3X, Homo sapiens, UniProt O00571, residues 132-607)", "method": "RNA Bind-n-Seq", "molecule type": "RNA", "medium": "in vitro", "concentration": "90 pmol", "setting": "4-mer, random 30-nt RNA, single round", "together with": "3 µM DMDA-PatA, 2 mM ADP, 2 mM phosphate", "reference": "input library", "reading": "higher = stronger binding", "chain of UniProt O00571 (132-607, looked up)": "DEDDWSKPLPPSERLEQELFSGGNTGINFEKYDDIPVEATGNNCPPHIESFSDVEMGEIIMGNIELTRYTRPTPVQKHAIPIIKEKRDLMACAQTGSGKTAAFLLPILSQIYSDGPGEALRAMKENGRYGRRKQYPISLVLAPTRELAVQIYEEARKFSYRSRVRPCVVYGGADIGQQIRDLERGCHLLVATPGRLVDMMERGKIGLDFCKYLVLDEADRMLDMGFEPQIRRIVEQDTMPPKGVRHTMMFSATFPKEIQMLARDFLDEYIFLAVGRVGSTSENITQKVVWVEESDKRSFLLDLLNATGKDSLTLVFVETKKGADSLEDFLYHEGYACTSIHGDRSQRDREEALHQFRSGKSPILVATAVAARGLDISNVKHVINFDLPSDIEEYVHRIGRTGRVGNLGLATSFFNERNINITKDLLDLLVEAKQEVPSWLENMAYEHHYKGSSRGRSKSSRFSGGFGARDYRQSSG"}
{"Strand": "GAUC", "4-mer enrichment": "0.813 fold"}
{"Strand": "CUAC", "4-mer enrichment": "0.848 fold"}
{"Strand": "GACA", "4-mer enrichment": "0.925 fold"}
{"Strand": "AUAU", "4-mer enrichment": "1.01 fold"}
{"Strand": "UAUC", "4-mer enrichment": "0.886 fold"}
{"Strand": "GGUA", "4-mer enrichment": "1.01 fold"}
{"data": "Series 3", "target": "PABPC1L2, full length, GST fusion (mouse, UniProt A0ABA7IW68)", "method": "RNAcompete", "molecule type": "RNA", "medium": "in vitro", "concentration": "20 nM", "setting": "7-mer, probes averaged, single round", "reference": "mean of 7-mers", "reading": "higher = stronger binding", "Target sequence (chain)": "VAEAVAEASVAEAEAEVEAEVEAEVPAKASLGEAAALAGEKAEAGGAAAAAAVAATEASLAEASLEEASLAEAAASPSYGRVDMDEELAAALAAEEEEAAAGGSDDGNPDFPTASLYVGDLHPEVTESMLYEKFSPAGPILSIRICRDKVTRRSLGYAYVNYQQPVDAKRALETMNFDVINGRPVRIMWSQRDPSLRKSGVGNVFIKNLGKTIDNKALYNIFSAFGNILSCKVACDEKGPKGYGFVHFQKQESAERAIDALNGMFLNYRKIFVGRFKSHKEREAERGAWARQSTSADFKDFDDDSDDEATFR"}
{"Strand": "CCGUGCC", "7-mer Z-score": -0.28}
{"Strand": "GUAAGCG", "7-mer Z-score": -0.0844}
{"Strand": "UGCAGUC", "7-mer Z-score": -0.206}
{"Strand": "GAGGCUG", "7-mer Z-score": 0.0225}
{"Strand": "AACGUCU", "7-mer Z-score": -0.253}
{"Strand": "AAGGAUA", "7-mer Z-score": 0.115}
{"Strand": "CGUAUGC", "7-mer Z-score": -0.302}
{"Strand": "CUUGAGC", "7-mer Z-score": -0.197}
{"data": "Series 4", "target": "Replicase polyprotein 1ab, main protease (rep, Severe acute respiratory syndrome coronavirus 2, UniProt P0DTD1)", "observed": "enzyme activity", "mode": "inhibitor", "concentration": "20 µM", "setting": "hit confirmation, no DTT"}
{"SMILES": "CC(C)Nc1cccnc1N1CCN(C(=O)c2cc3cc(NS(C)(=O)=O)ccc3[nH]2)CC1.CS(=O)(=O)O", "inhibition": "86.7%"}
{"SMILES": "N[C@@H](Cc1ccc(O)c(O)c1)C(=O)O", "inhibition": "56.6%"}
{"SMILES": "COCCCOc1ccnc(C[S+]([O-])c2nc3ccccc3[nH]2)c1C (stereo not drawn)", "inhibition": "94.2%"}
{"data": "Series 5", "target": "Hepatocyte nuclear factor 3-alpha (Foxa1, Mus musculus, UniProt P35582, residues 1-468, full length assumed)", "method": "EMSA with sequencing", "molecule type": "double-stranded DNA, one strand shown", "medium": "in vitro", "concentration": "10 and 20 nM", "setting": "whole designed probe, mean of two concentrations, ends assumed", "reference": "negative control set to 0", "reading": "higher = stronger binding", "shared flanks, not repeated": "GTGAGCGGTGCCCATTGATGGGGAAC … TTTCACTGGGATCGTGGGGAC", "chain of UniProt P35582 (whole entry, looked up)": "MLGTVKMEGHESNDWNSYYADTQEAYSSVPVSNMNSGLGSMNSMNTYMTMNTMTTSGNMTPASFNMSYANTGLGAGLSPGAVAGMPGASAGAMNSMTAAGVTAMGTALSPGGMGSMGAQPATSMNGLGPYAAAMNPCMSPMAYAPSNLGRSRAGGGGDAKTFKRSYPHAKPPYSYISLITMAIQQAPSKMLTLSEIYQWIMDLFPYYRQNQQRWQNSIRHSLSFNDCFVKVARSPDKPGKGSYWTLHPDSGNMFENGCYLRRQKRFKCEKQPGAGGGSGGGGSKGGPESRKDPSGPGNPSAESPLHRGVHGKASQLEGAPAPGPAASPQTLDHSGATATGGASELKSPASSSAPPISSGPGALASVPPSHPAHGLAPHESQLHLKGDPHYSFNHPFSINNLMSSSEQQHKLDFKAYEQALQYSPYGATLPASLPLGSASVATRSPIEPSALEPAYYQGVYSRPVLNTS"}
{"Strand": "CAATGGGGTAGGTCAGCCCCAGTGAACTCTCAAATGACCACTGAAGGAGGAAGTGAGTGCAGAGTGTGATACCACTCACATCCCAGCCCAGACTGTTTGCTCAGCTGGTTCTTCCTGCAGAGGAGTGTTGCAATTCGAGATAACACCCCTTCTCATGGCTTCAGGCATCACCTATCTCCTCTAGGCTGCGCTC", "normalised bound fraction [ratio]": 0.222}
{"Strand": "CAGCCTGCAGTGCGCTCAGTTAAACAATTCCAAATCAAGGAATTTTGTCTGATACAAGGAATTTGGGGTGTGTTTTCCTAACATGCACCCTGGGTAAATAGACTGCATTTCCTGACCCAGGGGGGGGGGGCCTGAAGCCAATATGCATTGCGGCCACAAGGTGGCGCGTCTGGGCCTGGCAAACCCCTGTGCT", "normalised bound fraction [ratio]": 0.211}
{"Strand": "CTTGCTGATTGCTAGCACAGCAGTCTGAGATCAAACTGCAAGGCGGCAGCAAGGCTGGGGGAGGGGCGCCCGCCATTGCCCAGGCTTGCTTAGGTAATCTAAGCAGCCTGGAAGCTCGTACTGGGTGGAGCCCACGACGCTCAAGGAGGCCTGCCTGCCTCTGTAGGCTCCACCTCTGGGGGCAGGGCACAGA", "normalised bound fraction [ratio]": -0.0615}
{"Strand": "TGTTCTTCTATGAGACTATTGTCATCTCGGTAATTAAGAATGATTTCCAGTTCTCTGGAACTTCTCGTCTGATCCAGTAGGTCCTTAGCAAATAGATTGCACTGCCGTGACAGCTCTTCATACTCCGACTTGAATTCATTTTCCACCTTGCTCAGTTCCTGAAGTTCCCAACTTAACTGAAAGGCTGTGAGAA", "normalised bound fraction [ratio]": 0.0925}
{"Strand": "TCAAGCATAAGCTACAACTTGCTGGCTCCCCATCTCCCAACAGAAAAAAAAAAAAAAAACCAACAAAACTATGGCCCTGAGAGGATGGCTCTGTATTTACATTCAGCATCATATATCAGCATTTACCAGGGTGAGGCCAATGGCTGTCAACTCCTGGCTCTTAGTCAATATTTAATCACTGTTCAGTTATGTA", "normalised bound fraction [ratio]": 0.307}
{"Strand": "ATCTTCCCCCTCTTCCTTGCCCCACCAGCTCACCTTCCCGGGTTATTTGCAGATAGGAAAATAAATAAAGCCGGCATTGTGCCTCCCTTAGATTCCGCAAACTGCTGTTTGCTCTGGATGAATCATGGTCCTTTGGCGACGCCAGGCTCCGGGAGAGCAAAGCACCGTGTCAGGGCCATGATCCGGGGTGGCC", "normalised bound fraction [ratio]": 0.35}
{"Strand": "CGTGTCCTACCATGCGGCTTAAGACTTCTCCAAAACACCGTCCCCCCAAATCCAATAAAATTGCAAATTTCACTGTATTTCACAATATCCTAAATAAACATGAACAGCATGCGTTTCTCTTCCTTGCATCAAATATTAATCTGCCCGTGGCCAGCGCCCGCTCCCCCGCGTGTGTGCGCACGCTGGGTAAACA", "normalised bound fraction [ratio]": 0.436}
{"Strand": "ATCTTCCCCCTCTTCCTTGCCCCACCAGCTCACCTTCCCGGGTTATTTGCAGATAGGAAAATAAATAAAGCCGGCATTCGTTAACGCAGTTCACGCGCATACTGCTGTTTGCTCTGCATCTAACATGGTCCTTACGCGAGGCGTGGCTCCGGGAGAGCAAAGCACCGTGTCAGGCGCATGATCCGGGCTCGCC", "normalised bound fraction [ratio]": 0.364}
{"data": "Other studies, line by line"}
{"Compound": "CO[C@H]1C[C@@H]2CC[C@@H](C)[C@@](O)(O2)C(=O)C(=O)N2CCCC[C@H]2C(=O)O[C@H]([C@H](C)C[C@@H]2CC[C@@H](OCCO)[C@H](OC)C2)CC(=O)[C@H](C)/C=C(\\C)[C@@H](O)[C@@H](OC)C(=O)[C@H](C)C[C@H](C)/C=C/C=C/C=C/1C", "cell line": "HEK-293T-ACE2", "concentration": "concentration not given", "reference": "vehicle", "endpoint": "cell number", "result": "99.2%"}
{"note": "Excerpt of the above (series 3):"}
{"Strand": "GAGGCUG", "7-mer Z-score": 0.0225}
{"Strand": "CGUAUGC", "7-mer Z-score": -0.302}
{"Strand": "CUUGAGC", "7-mer Z-score": -0.197}
{"Strand": "AAGGAUA", "7-mer Z-score": 0.115}
{"Strand": "AACGUCU", "7-mer Z-score": -0.253}
{"Strand": "CCGUGCC", "7-mer Z-score": -0.28}
{"Strand": "GUAAGCG", "7-mer Z-score": -0.0844}
